# Experimental data gathered from unrelated publications.
# Every numbered part comes from another study and shows a few of its results, in no order.

# Block 1 — technique: protein-binding microarray; form: double-stranded DNA, one strand shown; sample: in vitro; tested at: 250 nM; notes: 60-bp whole probe; together with: salmon DNA 0.4 mg/ml; baseline: random background probes; direction: higher = stronger binding; constant ends, left off below: GCCTAGCAC … GTCTTGATTCGCTTGACGCTGCTG
# Target: Interferon regulatory factor 7, full length, phosphomimetic (IRF7, Homo sapiens, UniProt Q92985, residues 1-503, S101K/S471D/S472D/S475D/S476D/S477D/S483D/S484D/S487D)
# Construct (chain): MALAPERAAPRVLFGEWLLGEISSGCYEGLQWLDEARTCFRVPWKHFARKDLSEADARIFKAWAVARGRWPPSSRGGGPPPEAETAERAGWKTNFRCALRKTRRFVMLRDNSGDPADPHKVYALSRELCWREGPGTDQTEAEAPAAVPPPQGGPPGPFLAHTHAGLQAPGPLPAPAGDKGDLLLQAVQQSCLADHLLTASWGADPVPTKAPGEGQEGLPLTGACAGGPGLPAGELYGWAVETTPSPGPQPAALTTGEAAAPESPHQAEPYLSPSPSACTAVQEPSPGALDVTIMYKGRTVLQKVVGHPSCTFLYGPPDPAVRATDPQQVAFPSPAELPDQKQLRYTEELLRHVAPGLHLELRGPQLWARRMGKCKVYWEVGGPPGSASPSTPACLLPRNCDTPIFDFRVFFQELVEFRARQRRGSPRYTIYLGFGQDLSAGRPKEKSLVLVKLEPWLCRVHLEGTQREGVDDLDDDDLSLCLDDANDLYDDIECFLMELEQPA
Oligonucleotide,log fluorescence
CTTTTATGCTCTTTCTACATGTGCTAG,1.64 z-score
GACGGTTTCCTTATCCTGATGTGCTAG,3.09 z-score
TCAGAGCTCCTCCTTCTCACTGTGCTA,-0.96 z-score
GACGGACTGGACATTGGGGACGTGCTA,-0.561 z-score
TTAGGTATTCTACTGCTTTAGTGCTAG,-0.153 z-score
TCAGGTTTCTGGTTTATACTGTGCTAG,4.58 z-score
TCATTTATCAATCATTTTACTGTGCTA,1.51 z-score
GACGGTCTCTTTCTCCTGACGTGCTAG,0.674 z-score
GACAGTTCCGGTTTCGGGACGTGCTAG,7.76 z-score
GACGGACTGGGTCTCGAGACGTGCTAG,-0.0972 z-score
TTCGGTATCGGACTGGGTTAGTGCTAG,0.185 z-score
TTAGGTTTGCTTCTCCTTTAGTGCTAG,0.997 z-score
GCCGATTTCAGACTGGAGACGTGCTAG,0.533 z-score
GACCGTTTCGGTTCCGGGACGTGCTAG,7.29 z-score
GACGGTTTCGGACTGGGCACGTGCTAG,3.48 z-score
TCAGGTCTCGCTATGTTACTGTGCTAG,0.91 z-score
CACGGTTTCGACTTTCGGGACGTGCTA,11.4 z-score
GACGGACTGGGTCTCCGGACGTGCTAG,-0.555 z-score
GGAGCGCCAGGCCCCGGCAGGTGCTAG,-1.2 z-score
TCACAAGTTTCACGTCTTACTGTGCTA,0.843 z-score

# Block 2 — technique: RNA Bind-n-Seq; form: RNA; sample: in vitro; tested at: 365 nM; baseline: no-protein control; direction: higher = stronger binding
# Target: RNA binding protein fox-1 homolog 2, RRM domain, GST-SBP tag (RBFOX2, Homo sapiens, UniProt O43251-10, residues 100-194)
# Notes: natural RNA segment, single round, ends assumed
# Constant ends, left off below: GGGAGUUCUACAGUCCGACGAUC … UGGAAUUCUCGGGUGCCAA
# Construct (chain): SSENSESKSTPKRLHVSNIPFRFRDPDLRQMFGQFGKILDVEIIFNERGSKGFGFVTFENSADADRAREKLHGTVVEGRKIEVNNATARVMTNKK
Oligonucleotide,RBNS enrichment (R)
GCCAGGUGCCUUAACUCUGGGACGUGUACAGACGUCCUCCCUCCUCUUUGGGAACUGUCCUCUUGGUGGAUCCGGGUUCCUGACCCCACCUCCCCCCAGUUGCCCCUCAG,0.369
GUAACGUAGGUGUAGAUUCCCAAAUGCAUUUGGAUGUACAGAUCGACUACAGAGUACUUUUUUCUUAUGAUGAUUGGUGUAGAAAUGUGUGAUUUGGGUGGGCUUUUACA,2.08
CAAAUGGUGCUGCUACUGGAUCAGAUUGUGAACGGUUAACUCUGCCCUGAAGUGGGGGUGCGGGAAUGGGGAGGCUUCCCCUUUAGUGACUCAUGUCCCAGGUCUAAGAA,0.605
CCACCUGACGCUGCAUGAGACAUUGACACCAGAAAGCCCUCUUGGGGGCACUGCUCCCUACCCCAGGGCCCUGGCCAGCCGGGAGCUUGGCUCUCCUCUGGCUAGAGUGG,1.57
GGGGUUUCUUCACGAUCGCACUGGAAGAUUUUAUAAGAGUUUUGGGGGGGGGGGGACAGUAAACGUCCUGAGCCACUUGGGUUCUUCAGGAGUUUCUCUUAGGGAAAGUU,1.1
AGUAGGCAUCUAAAGAAUAUAAAGCCUCAAAUCUUCCUUACUGUCUCUCUUGUCACAUGGAAUCUACAUGUGUUUGAACUAUUGCUUUAGGGUUUAAAAUAGGGGAGCCU,0.365
AAGGAGAAGGGCUGUGAUCUCCGGUCCCUUCCCCCAUCAUCCUUCCUUAGACUGAUGCUUUGACUGAAUCAUCACUAGCUAUGGCAUUAAAAGGCCUCUCUUCUCAUCUG,0.619
CAGACCUAUAUCUGGAGUGAGAGGCCCCCACCCUUGGGCAGAGUCCUGCCUUCUUCCUUGAGGGGCAGUUUGGGAAGGUGAUGGGUAUUAGUGGGGGACUGAGUUCAGGU,0.547
UCAGUAGCCUUAUCCUGUUGGUGGAAUACUGUACCAUAUGCUCCUCCAAAACCCAUGAACACGGCCAAAACCCAUAAAAACAACAAAAGCAAACUAAGUCAAGAACCGUA,0.409
UUAGCCCCAGGCCUGGGCAGGGAUUUGGCCUUCCAGUGGAGUUUCCUGUACCCUGGUGUAGCUUUUGUGUUGAAGACACUCUUGGGUGUGCACCCUAUUCAGGUCAGGGA,0.432
GUGCUGCCUGAGAUGGCACCUCCCUUUCAGCCAUUCUUCAAGAAUGGGCCACACACAGCUAGAAGUCCUCUCCCAGCUAGAAGUCCUGUCCCCACUCUCCUGGCCUGACA,0.304
CAUUGUUAAUAUCACGGGCGUAACACUUUGAACGAUAUAGAGAUGCACAAACAGUUGAACUUAGAAGUAGCAGUAUUGGCUUUAUGUAAUAAAGGAAGCAUUUUUGACUU,0.563

# Block 3 — technique: universal PBM; form: double-stranded DNA, one strand shown; sample: in vitro; tested at: 600 nM; direction: higher = stronger binding
# Target: Sal-like protein 4, full length isoform A (SALL4, Homo sapiens, UniProt Q9UJQ4, residues 1-1053)
# Chain of UniProt Q9UJQ4 (whole entry, looked up): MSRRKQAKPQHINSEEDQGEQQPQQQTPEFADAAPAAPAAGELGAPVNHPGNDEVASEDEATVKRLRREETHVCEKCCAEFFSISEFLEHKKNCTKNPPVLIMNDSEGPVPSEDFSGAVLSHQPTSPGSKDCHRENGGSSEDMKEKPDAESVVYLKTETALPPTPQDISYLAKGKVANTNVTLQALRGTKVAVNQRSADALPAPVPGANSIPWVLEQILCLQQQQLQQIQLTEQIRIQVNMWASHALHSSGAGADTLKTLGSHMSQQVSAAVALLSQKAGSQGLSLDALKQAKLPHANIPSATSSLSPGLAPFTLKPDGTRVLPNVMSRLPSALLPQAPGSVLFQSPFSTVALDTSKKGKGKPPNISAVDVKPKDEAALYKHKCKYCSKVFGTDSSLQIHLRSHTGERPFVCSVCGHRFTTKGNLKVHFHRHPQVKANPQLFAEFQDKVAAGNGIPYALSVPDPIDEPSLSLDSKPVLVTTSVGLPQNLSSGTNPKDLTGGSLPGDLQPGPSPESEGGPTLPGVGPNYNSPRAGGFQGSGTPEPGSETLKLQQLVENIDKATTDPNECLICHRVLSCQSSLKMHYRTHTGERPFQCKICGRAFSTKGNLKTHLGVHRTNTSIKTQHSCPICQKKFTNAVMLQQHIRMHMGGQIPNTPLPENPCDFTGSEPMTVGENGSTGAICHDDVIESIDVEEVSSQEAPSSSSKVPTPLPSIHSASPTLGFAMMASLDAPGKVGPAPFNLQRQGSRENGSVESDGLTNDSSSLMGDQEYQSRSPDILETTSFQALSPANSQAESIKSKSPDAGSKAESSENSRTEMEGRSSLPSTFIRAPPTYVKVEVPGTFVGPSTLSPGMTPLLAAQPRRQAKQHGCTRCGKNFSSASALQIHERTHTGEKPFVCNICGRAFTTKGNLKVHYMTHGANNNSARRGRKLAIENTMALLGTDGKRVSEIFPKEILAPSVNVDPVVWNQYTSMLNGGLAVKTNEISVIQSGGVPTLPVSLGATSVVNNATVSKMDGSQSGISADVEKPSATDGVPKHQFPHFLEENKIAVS
# Notes: 8-mer, flanks averaged, mean of replicates
Oligonucleotide,E-score
CCTAATGA,0.0843
AGGACGCA,-0.298
TGCTACCA,-0.0728
ATTTACAA,0.335
GACCATAA,0.181
ACCGAGAG,-0.154
CATGGAAA,0.256
CACTTCTG,-0.15
CGTTCCTC,-0.151
CAACCAAG,-0.00291
GCCGACAC,-0.295
ATAGACAC,0.0301
CGCGCTCA,-0.177
ACCTGGAA,0.118
ACGCGATC,-0.0825
ACTCATTC,0.15
AGAACATC,-0.00147
CCCATGGC,-0.333
CCTAACCC,-0.272
AACAAACC,0.0317
ATCACAGG,-0.0172
TCAGTACA,0.181
CCATGTTA,0.155
ATCCGGAG,-0.0667
AATGTTCC,0.0485

# Block 4 — technique: RNA Bind-n-Seq; form: RNA; sample: in vitro; tested at: 200 nM; notes: whole 134-nt RNA, ends assumed; together with: 150 mM LiCl; baseline: input library; direction: higher = stronger binding; all molecules: 7-deaza-guanosine replaces G
# Target: Ras GTPase-activating protein-binding protein 1, full length (G3BP1, Homo sapiens, UniProt Q13283)
# Chain of UniProt Q13283 (whole entry, looked up): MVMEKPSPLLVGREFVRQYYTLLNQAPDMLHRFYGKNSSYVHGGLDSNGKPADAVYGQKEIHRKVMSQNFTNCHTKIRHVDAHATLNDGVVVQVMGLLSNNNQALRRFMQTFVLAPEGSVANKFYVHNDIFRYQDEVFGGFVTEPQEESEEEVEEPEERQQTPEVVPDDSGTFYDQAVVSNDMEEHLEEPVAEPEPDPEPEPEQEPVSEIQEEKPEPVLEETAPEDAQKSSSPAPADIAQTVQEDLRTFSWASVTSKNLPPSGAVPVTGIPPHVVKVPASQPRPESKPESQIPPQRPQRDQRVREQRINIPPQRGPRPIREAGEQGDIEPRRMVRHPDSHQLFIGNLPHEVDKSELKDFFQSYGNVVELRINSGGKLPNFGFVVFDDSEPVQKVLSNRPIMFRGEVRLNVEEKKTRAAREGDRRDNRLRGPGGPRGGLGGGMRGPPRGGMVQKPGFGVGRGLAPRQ
# Constant ends, left off below: GGGAGUUCUACAGUCCGACGAUC … UGGAAUUCUCGGGUGUCAAGG
Oligonucleotide,log2 enrichment
AGUCCUGUGCUACACAUCGUAUGUACCGAAUCGGGUUUUUGGGUGGGAAAAAAAGGGAAAGUAUUAUGUUACGCCGUUCGGAUCUGCACU,-0.93
UAACUUUAGAGGAGGAUCUGAUGGAUAUGGCAGUGGACGUGGAUUUGGGGAUGGCUAUAAUGGGAAUGGAGGAGGACCUGGAGGUGGCAA,0.132
CACAGACAACACGCACCCACACAGACACAGAGGGAAGGGGUUGGGAUGAAAACAGGGUGCACAGCAGGGCGGGGUAGGACCCCAGCCCCU,0.401
GUCCUGUGCUACACAUCGUAUGUACCGAAUCAAAUUUUUUUAAACCCAAACCCCCAAAAAAGUAUUAUGUUACGCCGUUCGGAUCUGCAC,0.844
GUCCUGUGCUACACAUCGUAUGUACCGAAUCGGGGAAAAAGGGAAAAAGGGAAAAAGGAAAGUAUUAUGUUACGCCGUUCGGAUCUGCAC,-0.19
UUCCUCAAGUCCUGUGCUACACAUCGUAUGUACCGAAUCGGUGGUGGAGGAAAGUAUUAUGUUACGCCGUUCGGAUCUGCACUUCCAGCA,-0.565
CUCAAGUCCUGUGCUACACAUCGUAUGUACCGAAUCGGAGGAAAAAGGAAAGGAAAGUAUUAUGUUACGCCGUUCGGAUCUGCACUUCCA,-0.532
CACAGACAACACGCACCCACACAGACACAGAGGGAAGGGGUUGGGAUGGGGACAGGGUGCACAGCAGGGCGGGGUAGGACCCCAGCACCU,-1.49
CUGUGCUACACAUCGUAUGUACCGAAUCGGGGUUUUUUUGGGGAAAGGGGAAAAAAAGGGGAAAGUAUUAUGUUACGCCGUUCGGAUCUG,-0.128
CAAGUCCUGUGCUACACAUCGUAUGUACCGAAUCGGUUUUUUUGGUUUUUGGUGGAAAGUAUUAUGUUACGCCGUUCGGAUCUGCACUUC,-1
CAAGUCCUGUGCUACACAUCGUAUGUACCGAAUCGGUUUUUGGAAAGGAAAAAGGAAAGUAUUAUGUUACGCCGUUCGGAUCUGCACUUC,-0.613

# Block 5 — technique: protein binding microarray; form: double-stranded DNA, one strand shown; sample: in vitro; tested at: not given; baseline: not given; direction: higher = stronger binding
# Target: Histone acetyltransferase KAT6A, winged helix 1, GST fusion (KAT6A, Homo sapiens, UniProt Q92794, residues 1-85)
# Notes: 8-mer, flanks averaged, mean of 2 arrays, mostly near background
# Target sequence (chain): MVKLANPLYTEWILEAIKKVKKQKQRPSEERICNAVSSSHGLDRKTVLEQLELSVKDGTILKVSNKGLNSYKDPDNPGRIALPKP
Oligonucleotide,E-score
CGCCTACG,0.239
AGTTTCAT,-0.0825
GTCCAGGA,-0.28
CGGCTGGC,0.217
CGCTGGAA,0.246
AAACTGTC,-0.122
CACGCGAG,0.0682
CCACAAGA,-0.281
AATAAGCG,0.118
CATGCAGA,-0.147
AGCAGGTA,-0.035
GGGAGGCA,0.0615
CTACGAGA,-0.272
CACCCGAG,-0.0172
AAGCACTT,-0.113
CCGCGTAA,0.373

# A few entries again (block 3):
Oligonucleotide,E-score
ATAGACAC,0.0301
CGCGCTCA,-0.177
ACCTGGAA,0.118
ACGCGATC,-0.0825
ACTCATTC,0.15
AGAACATC,-0.00147
CCCATGGC,-0.333
CCTAACCC,-0.272
AACAAACC,0.0317
ATCACAGG,-0.0172
TCAGTACA,0.181
